Assay results collected from several papers.
± marks the error that the study gave.
Sequence of UniProt O60674 (whole entry, looked up): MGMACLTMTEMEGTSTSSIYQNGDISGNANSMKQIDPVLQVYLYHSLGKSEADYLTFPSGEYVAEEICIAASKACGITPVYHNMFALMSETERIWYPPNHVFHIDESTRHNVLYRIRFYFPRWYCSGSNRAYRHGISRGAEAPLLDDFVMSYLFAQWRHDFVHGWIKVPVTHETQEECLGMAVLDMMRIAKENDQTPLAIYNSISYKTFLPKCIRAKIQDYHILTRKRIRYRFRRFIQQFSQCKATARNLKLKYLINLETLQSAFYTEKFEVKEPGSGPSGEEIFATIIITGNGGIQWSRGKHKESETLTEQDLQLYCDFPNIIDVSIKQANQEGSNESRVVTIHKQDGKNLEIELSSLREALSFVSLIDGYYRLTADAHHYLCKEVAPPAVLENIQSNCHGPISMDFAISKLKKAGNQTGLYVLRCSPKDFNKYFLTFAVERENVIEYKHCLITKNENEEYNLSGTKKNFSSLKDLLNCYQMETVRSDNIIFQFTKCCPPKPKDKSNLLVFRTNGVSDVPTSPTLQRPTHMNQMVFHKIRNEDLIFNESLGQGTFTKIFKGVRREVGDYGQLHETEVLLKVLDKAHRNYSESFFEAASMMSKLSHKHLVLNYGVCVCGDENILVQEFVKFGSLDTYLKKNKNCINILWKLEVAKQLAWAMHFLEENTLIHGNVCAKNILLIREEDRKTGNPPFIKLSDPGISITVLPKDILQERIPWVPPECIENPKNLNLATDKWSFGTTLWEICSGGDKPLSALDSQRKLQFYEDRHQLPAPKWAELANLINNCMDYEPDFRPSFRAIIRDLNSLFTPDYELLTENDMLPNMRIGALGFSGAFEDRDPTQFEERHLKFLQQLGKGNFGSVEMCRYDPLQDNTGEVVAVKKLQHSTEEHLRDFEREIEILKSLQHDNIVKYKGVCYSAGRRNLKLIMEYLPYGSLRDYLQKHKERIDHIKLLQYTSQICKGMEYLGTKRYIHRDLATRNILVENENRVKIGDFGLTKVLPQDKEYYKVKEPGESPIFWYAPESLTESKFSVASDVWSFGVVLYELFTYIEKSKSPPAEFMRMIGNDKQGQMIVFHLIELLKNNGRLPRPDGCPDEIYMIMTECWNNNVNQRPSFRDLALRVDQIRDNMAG

COc1ccc2nc3cc(Cl)ccc3c(Nc3cc(CN4CCCC4)c(O)c(CN4CCCC4)c3)c2n1 — basophils (mouse, blood; oral, 57 mg/kg, tolerability, mean): 0.53%
O=S(=O)(Nc1ccccc1)c1ccc(NC(=S)Nc2ccccc2)cc1 — relative organ weight (mouse, male, liver; oral, 20 mg/kg daily, 14 days; reference: body weight): 5.66%
CC(=O)c1c(C)c2cnc(Nc3ccc(C4CCN(CCS(C)(=O)=O)CC4)cn3)nc2n(C2CCCC2)c1=O — MRT (human, plasma; oral, 100 mg, day 1 single dose): 12.1 h
CCc1ccc(CC/C=C/c2ccc3c(c2)C(=O)CC3)cc1 — ALT serum activity (Sprague-Dawley rat, female; oral, 120 mg/kg/day, 14 days): 59.7 U/L
COc1ccccc1-c1cccc(CN2CCCC(C(=O)NCc3ccc(F)cc3)C2)c1 (stereo not drawn) — maximum response (Vero-E6; CellTiter-Glo ATP; 72 h, retest 8-point duplicates; reference: DMSO 0%, hyamine -100%, more negative, more toxic): -12%
N[C@@H]1c2ccccc2OC12CCN(c1cnc3c(N4CCCc5ncccc54)n[nH]c3n1)CC2 — TEAE leading to withdrawal (advanced metastatic solid tumour patients; oral, 20 mg once daily): 0%
c1cc2ccc3cccc4ccc(c1)c2c34 — metabolism rate (pooled human liver microsomes; 0.25 µM, pH 7.4): 60 pmol/min/mg
COc1ccccc1-c1cccc(CN2CCCC(C(=O)NCCc3ccc(F)cc3)C2)c1 (stereo not drawn) — maximum response (Vero-E6; CellTiter-Glo ATP; 72 h, first round 5-point; reference: DMSO 0%, hyamine -100%, more negative, more toxic): -14.4%
CC[C@H](C)[C@@H]1NC(=O)[C@@H]2CSSC[C@H](NC(=O)[C@H](CCCNC(=N)N)NC(=O)[C@@H]3CSSC[C@H](NC1=O)C(=O)N[C@@H]([C@@H](C)O)C(=O)N[C@@H](CCCNC(=N)N)C(=O)NCC(=O)N[C@@H](Cc1ccccc1)C(=O)N3)C(=O)N[C@@H](CC(C)C)C(=O)N[C@H]1CSSC[C@H](NC(=O)[C@H](C(C)C)NC(=O)CNC(=O)[C@H](CCCNC(=N)N)NC(=O)[C@H](CCCNC(=N)N)NC1=O)C(=O)N[C@@H](CCCNC(=N)N)C(=O)N2 — alveolar macrophage aggregation score (Sprague-Dawley rats, male, lung; 5 mg/kg; direction not given): 1 to 2
C=CC(=O)N1CC[C@H](n2nc(C#Cc3cc(OC)cc(OC)c3)c3c(N)ncnc32)C1 — ALT increased, any grade (human patients; oral, dose not given, QD regimen, adverse drug reaction, with: lanthanum carbonate hydrate): 20.8%
C=CC(=O)Nc1cc(Nc2nccc(Nc3cc(Cl)c(F)cc3C(C)(C)O)n2)c(OC)cc1N1CC[C@@H](N(C)C)C1 — patients with paronychia (human patients; oral, 50 mg, treatment-emergent adverse events): 16.7%
OCc1cc(C(O)CNCCCCCCOCCCCc2ccccc2)ccc1O (stereo not drawn) — absorption rate constant (human; oral): 1 h⁻¹
CCOC(=O)C1=C[C@@H](OC(CC)CC)[C@H](NC(C)=O)[C@@H](N)C1 — renal clearance (Sprague-Dawley rats, male, plasma and urine; oral, 30 mg/kg, alone): 10.3 mL/min/kg
COC[C@@H](CC(C)C)NC(=O)c1ccc(C)c(C)c1 — micronucleated PCE per 1000 PCE (Hsd:ICR (CD-1) mouse, female, bone marrow; oral, 2000 mg/kg, 24 h): 0.5
N=C(N)NCCC[C@@H](NC(=O)[C@@H](N)Cc1ccccc1)C(=O)N[C@@H](Cc1ccccc1)C(=O)N[C@@H](CCCCN)C(N)=O — mean fraction excreted in urine (LC-MS; human; 5 mg, 11.83 h): 6.04%
CC(C)C[C@H](NC(=O)[C@H](CCCCN)NC(=O)OCC1c2ccccc2-c2ccccc21)C(=O)N[C@H](C(=O)N[C@@H](Cc1ccccc1)C(=O)N[C@@H](Cc1ccccc1)C(=O)N[C@@H](CCCCN)C(=O)NCC(=O)N[C@@H](Cc1ccccc1)C(=O)N[C@@H](C)C(=O)N[C@@H](Cc1c[nH]c2ccccc12)C(=O)N[C@@H](CC(N)=O)C(=O)N[C@H](C(=O)N[C@H]1CSSC[C@@H](C(=O)N[C@@H](Cc2c[nH]cn2)C(=O)N[C@@H](CCCNC(=N)N)C(=O)N[C@@H](CCCNC(=N)N)C(=O)N[C@@H](C)C(=O)N[C@@H](CC(N)=O)C(N)=O)NC(=O)[C@H](C(C)C)NC(=O)[C@H](CCCNC(=N)N)NC(=O)[C@H](C(C)C)NC(=O)CNC(=O)[C@H](CC(N)=O)NC(=O)[C@H](CCCNC(=N)N)NC(=O)[C@H](Cc2ccc(O)cc2)NC(=O)[C@H](C(C)C)NC1=O)C(C)C)C(C)C — albumin (ICR mice, serum; intraperitoneal, 10 mg/kg, day 5): 34.6 ± 2.14 g/L
CC(C)C(=O)OC[C@H]1O[C@@H](n2ccc(NO)nc2=O)[C@H](O)[C@@H]1O — bench-top stability (rat maternal placenta dialysate; 250 ng/mL, 6 h, room temperature, high concentration, with: NHC 1000 ng/mL): 98.9 ± 3%
O=c1cc(-c2ccc(O)cc2)oc2c([C@@H]3OC[C@H](O)[C@H](O)[C@H]3O)c(O)c([C@@H]3O[C@H](CO)[C@@H](O)[C@H](O)[C@H]3O)c(O)c12 — heart rate (HFpEF mice; oral, 20 and 40 mg/kg/day): no effect
C[C@@H](NC(=O)N1C(=O)[C@H](Cc2ccnc(N)c2)[C@H]1C(=O)O)C1CCCCC1 — incidence of grade 3 or higher AEs (healthy adult Chinese volunteers; continuous intravenous infusion, 1.0 mg/kg/h, 5-day infusion, CTCAE 5.0 grading): 0%
COc1ccc(N=Nc2ccc3[nH]cc(CCN(C)C)c3c2)cc1 — trans isomer at photostationary state (light irradiation; solution; with: light 530 nm): 91%
O=C1Nc2cc3[nH]nc(-c4ccncc4)c3cc2CN1Cc1ccccc1 — patients with fatigue (CTCAE v4.03; advanced solid tumour patients; intravenous, 0.9 mg/kg, schedules 1/2): 0%
Cn1nnc2c(C(N)=O)ncn2c1=O — body weight (mice; intravenous, 125 mg/kg single dose, 7 days): 32 ± 1 g
O=C(Nc1ccccc1)C1CCN(C(=O)Oc2cccnc2)CC1 — subjects with cold sweat (adverse event reporting; healthy women; oral, 100 mg, 9 days): 7.7%
CCN1[C@@H](C(=O)NC23CCC(C(=O)O)(CC2)CC3)[C@H](c2cccc(Cl)c2F)[C@]2(C(=O)Nc3cc(Cl)ccc32)C12CCCCC2 — grade ≥3 febrile neutropenia incidence (patients with advanced solid tumours; oral, 150 mg): 12.5%
O=C(Nc1ccc(Cl)cc1)Nc1ccc(Cl)c(Cl)c1 — final permeate concentration (ultrafiltration; cow milk whey; 20 nM nominal in whole milk): 0.03 nM
C[C@H]1CN(c2n[nH]c3nc(N[C@H]4CC[C@H](NS(=O)(=O)CCC(F)(F)F)CC4)ncc23)CCO1 — relative abundance (Tyrosine-protein kinase JAK2 (JAK2, Homo sapiens, UniProt O60674); inhibitor, Kinobeads competition profiling; 0.8 µM; reference: vehicle): 1.1
O=C(c1ccc(F)c(F)c1Nc1ccc(I)cc1F)N1CC(O)([C@@H]2CCCCN2)C1 — duration of headache DLT (human; oral, 1 mg/kg): 12 days
C=CCNc1c(O)cc2c(O)c1C[C@@H](C)C[C@H](OC)[C@H](O)[C@@H](C)/C=C(\C)[C@H](OC(N)=O)[C@@H](OC)/C=C\C=C(/C)C(=O)N2 — patients with TEAE (measured: Diarrhea; unresectable or metastatic GIST/STS; intravenous, dose not given, all doses): 46%
Cn1cncc1-c1c(F)cncc1NC(=O)c1c(N)nn2cc(F)cnc12 — grade ≥3 white cell decrease incidence (human patients; oral, 270 mg once daily): 25%
CN1CC[C@@H](c2c(O)cc(O)c3c(=O)cc(-c4ccc(C(F)(F)F)cc4Cl)oc23)[C@@H]1CO — adverse event incidence (measured: Fatigue; relapsed or refractory haematological malignancies; oral, dose not given, grade ≥3): 0%
[O-][S+]1CCc2nc(N3CCC(c4ncc(Cl)cn4)CC3)nc(NC3(CO)CCC3)c21 (stereo not drawn) — adverse event incidence (measured: abdominal distension; healthy male humans; 6 mg twice daily): 0%
C/C(=N\C#N)N(C)Cc1ccc(Cl)nc1 — recovery (soil; 28 days, nominal 0.37): 7%
C[C@]1(CO)Cc2ncn(-c3ccc(C#N)c(Cl)c3)c2C(=O)O1 — subjects with drug-related fatigue (human; 40 mg multiple doses, fasted): 0%
CC(C)[C@H](C(=O)O[C@H](C#N)c1cccc(Oc2ccccc2)c1)c1ccc(Cl)cc1 — enzyme contribution to clearance (measured: CYP2B6; human, age 6 months): 0.68%
Cc1cc(OCCOCCC(F)(F)P(=O)(O)O)ccc1CCc1cnc2c(N)nc3cc(CCC(=O)O)ccc3c2c1 — patients with non-serious AE (measured: nausea; adults with advanced solid tumours; dose not given, by treatment group, all grades): 4.8%
CNC(=O)n1ccc2cc(Oc3ccnc(NC(=O)c4ccc(C5CCN(CCO)CC5)cc4)c3)c(OCCOC)cc21 — AUC(0-t) change (healthy human, plasma; oral, dose not given, with: rabeprazole steady state; reference: compound alone): ~8%
CO[C@H]1C[C@@H]2CC[C@@H](C)[C@@](O)(O2)C(=O)C(=O)N2CCCC[C@H]2C(=O)O[C@H]([C@H](C)C[C@@H]2CC[C@@H](OC(=O)NCCOCCOCCOCCOCCOCCOCCOCCOCCC(=O)N3CCc4cc(Cn5nc(-c6ccc7oc(N)nc7c6)c6c(N)ncnc65)ccc4C3)[C@H](OC)C2)C[C@@H](O)[C@H](C)/C=C(\C)[C@@H](O)[C@@H](OC)C(=O)[C@H](C)C[C@H](C)/C=C/C=C/C=C/1C — dose-reducing adverse events (phase 1 dose escalation, measured: fatigue; advanced solid tumour patients; intravenous, 12 mg weekly, any grade): 0%
COc1cc2c(Oc3ccc4[nH]c(C)cc4c3F)ccnc2cc1OCC1(N)CC1 — grade 3 AST elevation (paediatric recurrent refractory sarcoma; 8 mg): 0%
C1=Cc2nc1cc1ccc([n-]1)c(-c1ccccc1)c1nc(cc3ccc([n-]3)c2-c2ccccc2)C=C1.CC(=O)[O-].[Mn+3] — plasma concentration (LC-MS/MS; Sprague-Dawley rat, plasma; oral gavage, dose not given, 30 min, individual rat Rat2): 26 ng/mL
